Assay results of several laboratories.
Every numbered part comes from another study and shows a few of its results, in no order.

Series 1
Target: Replicase polyprotein 1ab, main protease (rep, Severe acute respiratory syndrome coronavirus 2, UniProt P0DTD1)
Read-out: enzyme activity
Mode: inhibitor
Tested at: 20 µM
Setting: hit confirmation, with DTT
`O=C1c2c(O)cccc2Cc2cccc(O)c21` gave an inhibition of 23.7%.
For `COCCCOc1ccnc(C[S+]([O-])c2nc3ccccc3[nH]2)c1C` (stereo not shown), the inhibition was -10.5%.
With `CN1C(=O)C(N2CCCCC2)S/C1=C\C(=O)O` (stereo not shown) the inhibition was 3.5%.

Series 2
Target: Replicase polyprotein 1ab, nsp13 helicase (rep, Severe acute respiratory syndrome coronavirus 2, UniProt P0DTD1)
Mode: inhibitor
Tested at: 20 µM
For `NC(N)=NC(N)=Nc1ccccc1`, the inhibition was 2.88%.
`O=C(O)[C@H]1O[C@@H](Oc2cc3oc(-c4ccccc4)cc(=O)c3c(O)c2O)[C@H](O)[C@@H](O)[C@@H]1O` gave an inhibition of 3.11%.
`c1cnc(NCc2ccc(CNc3ncccn3)cc2)nc1` has an inhibition of 0.59%.
`Nc1ncnc2c1ncn2[C@@H]1O[C@H](C[C@@H](N)CC[C@H](N)C(=O)O)[C@@H](O)[C@H]1O` has an inhibition of 12.9%.
`O=C(Nc1ccc([N+](=O)[O-])cc1O)Nc1ccccc1Br` gave an inhibition of 3.57%.
`Cc1ccc2c(-c3ccccc3)nc(=O)n(C(C)C)c2c1` gave an inhibition of 6.2%.
`Clc1ccc([C@]23CNC[C@H]2C3)cc1Cl` gave an inhibition of 6.09%.
`OC(CCCN1CCCCC1)(c1ccccc1)c1ccccc1` has an inhibition of 6.35%.
For `Cc1c(C)c(NCC(=O)N(C)C2CCN(Cc3ccc(C(N)=O)cc3)CC2)c(C)c(C)c1N`, the inhibition was 8.46%.
With `CCc1nc2c(C)nc(C)cc2n1-c1ccc(CCNC(=O)NS(=O)(=O)c2ccc(C)cc2)cc1` the inhibition was -3.16%.
The inhibition of `CCOC(=O)c1c(CSc2ccccc2)n(C)c2cc(Br)c(O)c(CN(C)C)c12` is reported as 1.42%.
With `Cn1cc(-c2cnc3ccc4ccc(CS(=O)(=O)NCc5ccccn5)cc4c(=O)c3c2)cn1` the inhibition was 2.5%.
`CN1[C@@H]2CC[C@H]1C[C@@H](OC(=O)C(CO)c1ccccc1)C2` (stereo partly shown) gave an inhibition of 5.21%.
`c1ccc2c(c1)Sc1ccccc1N2C[C@@H]1CN2CCC1CC2` has an inhibition of 5.21%.
With `CCCC(C)(COC(N)=O)COC(=O)NC(C)C` (stereo not shown) the inhibition was 3.91%.
`CC[C@H](C)[C@@H]1NC(=O)[C@H](Cc2ccc(O)cc2)NC(=O)[C@@H](N)CSSC[C@@H](C(=O)N2CCC[C@H]2C(=O)N[C@@H](CC(C)C)C(=O)NCC(N)=O)NC(=O)[C@H](CC(N)=O)NC(=O)[C@H](CCC(N)=O)NC1=O` gave an inhibition of -0.68%.
`CC(C)Cc1ccc([C@H](C)C(=O)O)cc1` has an inhibition of 1%.
For `COCC[n+]1c2c(n(Cc3cnccn3)c1C)C(=O)c1ccccc1C2=O`, the inhibition was 17.9%.
For `O=C(c1ccc(-c2ccc(Cl)cc2)o1)N(Cc1ccccn1)c1ccc(N2CCNCC2)cc1`, the inhibition was 10.6%.
`Cc1ccccc1C(=O)Nc1ccc(C(=O)N2CCCC(O)c3cc(Cl)ccc32)c(C)c1` (stereo not shown) has an inhibition of 7.11%.
`N#Cc1c(N)nc(SCc2ncc[nH]2)c(C#N)c1-c1ccc(O)cc1` gave an inhibition of 7.46%.
For `N[C@@H](C(=O)N[C@@H]1C(=O)N2C(C(=O)O)=C(Cl)CC[C@H]12)c1ccccc1`, the inhibition was -1.01%.
The inhibition of `CN[C@H]1C[C@@H](N)[C@H](O)[C@@H](O[C@@H]2O[C@H](CO)[C@H](O)[C@@H]3OC4(O[C@H]23)O[C@H]([C@@H](N)CO)[C@H](O)[C@H](O)[C@H]4O)[C@@H]1O` (stereo partly shown) is reported as 2.97%.
`C[C@@H](c1nc(-c2ccc(C#N)cc2)cs1)[C@](O)(Cn1cncn1)c1cc(F)ccc1F` gave an inhibition of 6.19%.
With `O=C(Nc1ccccc1)N1CCN(c2nc(-c3ccccc3)ns2)CC1` the inhibition was 0.9%.

Series 3
Target: PABPC1L2, full length, GST fusion (mouse, UniProt A0ABA7IW68)
Technique: RNAcompete
Molecule type: RNA
Medium: in vitro
Tested at: 20 nM
Setting: 7-mer, probes averaged, single round
Baseline: mean of 7-mers
Reading: higher = stronger binding
Residues (chain): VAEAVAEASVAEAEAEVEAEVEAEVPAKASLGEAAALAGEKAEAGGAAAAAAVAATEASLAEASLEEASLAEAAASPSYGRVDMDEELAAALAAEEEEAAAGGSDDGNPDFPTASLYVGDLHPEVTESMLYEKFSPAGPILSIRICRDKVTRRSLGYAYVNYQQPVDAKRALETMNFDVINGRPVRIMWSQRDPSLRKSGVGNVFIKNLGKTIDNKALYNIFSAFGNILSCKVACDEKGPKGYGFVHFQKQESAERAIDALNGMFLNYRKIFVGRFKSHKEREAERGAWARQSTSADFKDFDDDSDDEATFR
With `UACAGCU` the 7-mer Z-score was -0.222.
`UAGUAGU` has a 7-mer Z-score of -0.121.
`CGUUCAC` gave a 7-mer Z-score of -0.367.
For `UACCUCU`, the 7-mer Z-score was -0.271.
The 7-mer Z-score of `AUUAAAC` is reported as 0.691.
With `UGGGGUC` the 7-mer Z-score was 0.046.
`CACCAAG` gave a 7-mer Z-score of -0.0138.
The 7-mer Z-score of `CAAAAAA` is reported as 29.5.

Series 4
Cell line: HEK-293T
Read-out: pseudovirus infection
Technique: FDA-approved drug library screen
Organism: VSV pseudotyped with SARS-CoV-2 spike
Tested at: 10 µM
Time: 16 h
Baseline: vehicle-treated
With `CC(=O)c1ccc(S(=O)(=O)NC(=O)NC2CCCCC2)cc1` the GFP-positive cells was 83.5%.
`C=C1c2cccc(O)c2C(=O)C2=C(O)[C@]3(O)C(=O)C(C(N)=O)=C(O)[C@@H](N(C)C)[C@@H]3[C@@H](O)[C@H]12` has a GFP-positive cells of 98.5%.
The GFP-positive cells of `CC(C)(Oc1ccc(C(=O)c2ccc(Cl)cc2)cc1)C(=O)O` is reported as 102%.

Series 5
Target: RING finger protein unkempt homolog, zinc fingers 1-6, GST-SBP tag (UNK, Homo sapiens, UniProt Q9C0B0, residues 30-357)
Chain of UniProt Q9C0B0 (30-357, looked up): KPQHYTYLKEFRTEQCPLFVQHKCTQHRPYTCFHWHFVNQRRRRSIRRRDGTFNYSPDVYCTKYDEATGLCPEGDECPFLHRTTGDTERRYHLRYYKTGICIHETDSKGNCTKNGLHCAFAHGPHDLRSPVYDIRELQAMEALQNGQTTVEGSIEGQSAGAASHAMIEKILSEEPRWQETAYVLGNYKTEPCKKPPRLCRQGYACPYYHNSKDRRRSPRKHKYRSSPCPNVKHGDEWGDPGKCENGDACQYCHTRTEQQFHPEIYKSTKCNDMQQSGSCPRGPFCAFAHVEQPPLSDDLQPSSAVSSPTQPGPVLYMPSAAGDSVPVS
Technique: RNA Bind-n-Seq
Molecule type: RNA
Medium: in vitro
Tested at: not given
Setting: RNA with constant flanks, human and mouse sites, ends assumed
Baseline: input RNA pool
Reading: higher = stronger binding
With `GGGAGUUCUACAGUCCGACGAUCACUUUACACUUUGUGCAAUGGCUUUCUCUUCAGAAUGACUUUGUGAAUGCACUUUGUGGCCUUUUGAGGGGGUAAGGGUCAGGAGAGAAUUCAUGUUAAUUUCUUUAACAUUGUUAUGUACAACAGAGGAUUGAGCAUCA` the bound/input enrichment was 0.264 ratio.
With `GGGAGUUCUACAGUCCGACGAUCUUUUUAAAAAAAUAAAAUAAAACAUAAAUAUUACUCUUCCAUAUUCCUUCUGCCUAUAUUUAGUAAUUAAUUUAUUUUAUGAUAAAGUUCUAAUGAAAUGUAAAUUGUUUCAGCAAAAUUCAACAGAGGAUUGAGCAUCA` the bound/input enrichment was 4.41 ratio.
`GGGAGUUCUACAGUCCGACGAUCAUACAUUCCAAGGGCGCCCAGGGUGAAGGCAACUCAGUAUCAUUGGAUUUUCAGAACUCAUAUAUGUCCAAACCAGACCCACCCCCAUCUCAGAGUAAACCAGCAACUUUCAGACCACCACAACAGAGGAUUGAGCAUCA` gave a bound/input enrichment of 0.296 ratio.
The bound/input enrichment of `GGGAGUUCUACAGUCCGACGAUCCACUUGAUGCCCCCAAGAAUCCUAGUAGAAUGUUUACUACCAAAUGGAAUGAUAGUGACUUUAGAAUGCCUCCGUGAGGCUACAUUAAUAACCAUAAAGCAUGAACUAUUUAAAGAAGCACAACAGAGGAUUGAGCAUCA` is reported as 0.953 ratio.
The bound/input enrichment of `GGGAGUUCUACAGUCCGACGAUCGGAAUUCAACCUGUAAUAGAUAAAUUAAGGGAACACGAAAAUUCAACAUUAGAUAGGCAUUUAGACUUUUUUGAAAUGCUCCGAAAUGAAGAUGAACUAGAAUUUGCCAAAAGAUUUGAACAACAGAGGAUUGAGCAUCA` is reported as 6.58 ratio.
The bound/input enrichment of `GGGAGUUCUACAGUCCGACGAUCCUUCUCUAACUUUUUCAGUUCACAAUUUACUUGGUCCAGAUUUUCUAUUCUUUUUUUUUAACUAGUAAAUGAAAUUUACAUACUUCAUAAAAUUAUGAACAGAUAGCGCAUUGGGCUCUGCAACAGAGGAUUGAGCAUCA` is reported as 1.12 ratio.
`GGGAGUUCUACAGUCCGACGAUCAACACAUGGCAGUUCAACUUCAAGUUCAACCUGACAGAGGAUAUGUACUCCCAGGAUUCCAUAGAUCUGCUUGCAAACUCAGGGCUGCAGUUCCAGAAACACGAGGAGGAAGGGAUCGAUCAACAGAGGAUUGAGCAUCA` gave a bound/input enrichment of 0.11 ratio.
With `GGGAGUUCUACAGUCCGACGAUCUAAAAGCGAUGCCCAUAUAAGUCAAGGAAAUGAGCCCAGGCCUCGCUGUGAAGCAGUGUGUGAAUGGACAGUGUUGAAUGGGUGUCUGGCUCCGUGCUAGAGAGCCAGGUUCAUCUUUCACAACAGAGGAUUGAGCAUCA` the bound/input enrichment was 0.171 ratio.

Series 6
Target: RNA binding protein fox-1 homolog 2, RRM domain, GST-SBP tag (RBFOX2, Homo sapiens, UniProt O43251-10, residues 100-194)
Technique: RNA Bind-n-Seq
Molecule type: RNA
Medium: in vitro
Tested at: 365 nM
Setting: natural RNA segment, single round, ends assumed
Baseline: no-protein control
Reading: higher = stronger binding
Target sequence (chain): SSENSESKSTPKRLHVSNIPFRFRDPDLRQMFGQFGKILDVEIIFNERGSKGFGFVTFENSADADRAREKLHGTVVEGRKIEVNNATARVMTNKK
`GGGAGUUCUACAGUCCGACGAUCCAGGGAUCCAAAGGGAACACAGUAUGUAGGUCAAACUGGCAGUAACAGUGUACAGCCUUUGACAAACUAGAAAUAUUAGAGUAGGCCAAACACACCUCCAAACUGUAAGGUGGAAUUCUCGGGUGCCAA` — result for “RBNS enrichment (R)”: 0.314.
Under “RBNS enrichment (R)”, `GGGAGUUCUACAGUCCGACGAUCUUUGCUUUGUUUAAGCAUCACAUUAAAGUUAAACUGUAUUUUAUGUUAUUUAUAGCUGUAGGUUUUCUGUGUUUAGCUAUUUAAUACUAAUUUUCCAUAAGCUAUUUUGGUGGAAUUCUCGGGUGCCAA` is recorded as 0.705.
`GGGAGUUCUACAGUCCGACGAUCUUGAUGGCCAUCUCUGCCUUUUAUAGUCACCUGACACUGACCUACAUCUCUCGCUUGCUUAAAGUCUUGAGGAAAAUGUUCCUGUUUGCUGCGUGGGCCUGGGUGGGAUGUGGAAUUCUCGGGUGCCAA` — result for “RBNS enrichment (R)”: 4.29.
Under “RBNS enrichment (R)”, `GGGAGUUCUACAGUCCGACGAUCUAAUGUGGCACCAUGCAGAUGUGACUUGAUUUGGCUGAGAGCUACCUUUCCUGAAGUAUGCACCCUAGAAAAGAAUUGUGUGCUAAUGCUUGUCAGAGCUGUGGCAGUACUGGAAUUCUCGGGUGCCAA` is recorded as 0.501.
`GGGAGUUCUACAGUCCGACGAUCCGUAAAUGUCUAGUCUUCUCACAUAGAGAUUAACCAACAAACUUGUGUGGCUGACUUUUGUGUAAGAAUCAUAGUUUGCUUUAGAAUACAAAUCUUUAAGUCAUUUUAACUGGAAUUCUCGGGUGCCAA`: “RBNS enrichment (R)” 0.395.
Under “RBNS enrichment (R)”, `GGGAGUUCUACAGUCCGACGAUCCAAGAUGACCAAAUACUCUACCACACUAACCAAGGAGCCCUCCCUAGCCCUGCAGUUCCCACCUUUGAGGUUUUGUUAUGGUAAGUCCCCAAGUCCAGUACCUCUGGUAAUGGAAUUCUCGGGUGCCAA` is recorded as 0.675.
`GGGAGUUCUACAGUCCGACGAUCGUAUGAUCACGUAGACCCACCCAACACACUCCUGCACACUGGCCCCGGCCCACGGCACAGCAAUCCCCUGCGCGUGGAUUUCACCUCACCCUUUGUACCAGAUGUUGAGUUGGAAUUCUCGGGUGCCAA` — result for “RBNS enrichment (R)”: 0.657.
For `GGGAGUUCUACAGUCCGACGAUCAGAGGCGCCGCACUAGACACCUCAUCCUCAGGUGGCCACAGAGAUGCUCCAACUGCCUGUCUCCAGGUCCCUGGGUGAAUGUGGCCAUCCAGCAGAGAUGCUAGUGGGGCUGGAAUUCUCGGGUGCCAA`, “RBNS enrichment (R)” read 0.533.

Repeated from above (series 2):
For `NC(N)=NC(N)=Nc1ccccc1`, the inhibition was 2.88%.
`O=C(O)[C@H]1O[C@@H](Oc2cc3oc(-c4ccccc4)cc(=O)c3c(O)c2O)[C@H](O)[C@@H](O)[C@@H]1O` gave an inhibition of 3.11%.
`c1cnc(NCc2ccc(CNc3ncccn3)cc2)nc1` has an inhibition of 0.59%.
`Nc1ncnc2c1ncn2[C@@H]1O[C@H](C[C@@H](N)CC[C@H](N)C(=O)O)[C@@H](O)[C@H]1O` has an inhibition of 12.9%.
`O=C(Nc1ccc([N+](=O)[O-])cc1O)Nc1ccccc1Br` gave an inhibition of 3.57%.
